Measurements collected from several papers.
Protocols differ between the studies behind these lines. Values joined by “and” are separate records of one study, mostly repeats; a detail may differ. ± gives the spread as reported.

SMILES | target or system | test | test system | setting | scale | measurement | result
COC1OC(C)C(OC2OC(C)C(O)C(OC3OC(C)C(OC4OC(C)C(O)C(OC5OC(C)C(OC6OC(C)C(O)C(OC7OC(C)C(OC8OC(C)C(O)C(OC9OC(C)C(O)C(OS(=O)(=O)O)C9OS(=O)(=O)O)C8OS(=O)(=O)O)C(OS(=O)(=O)O)C7OS(=O)(=O)O)C6OS(=O)(=O)O)C(OS(=O)(=O)O)C5OS(=O)(=O)O)C4OS(=O)(=O)O)C(OS(=O)(=O)O)C3OS(=O)(=O)O)C2OS(=O)(=O)O)C(OS(=O)(=O)O)C1OS(=O)(=O)O (centres unmarked) | – | – | human plasma | 128 µg/mL | reference: control | thrombin time prolongation | 0.9 fold
Cc1cccc2c1N(C(=O)n1ccnn1)CC2 | Oryza sativa | – | – | concentration not given, average | – | plant height | 21.8 cm
COC1CN([C@H]2CC[C@H]([C@@]3(C)Oc4c(Cl)cc(C(=O)NCc5c(SC)cc(C)[nH]c5=O)c(C)c4O3)CC2)C1 | – | RNA-seq, refers to: RTN1 mouse homolog | mouse, HT-1376 xenograft, whole blood | dose not given | reference: vehicle | log2 fold change | 0.226
COc1ccccc1-c1ccncc1C(=O)Nc1nnc(OCc2ccc(Cl)cc2)s1 | PEO1 BRCA2-mutant | – | – | 1.00 µM, added: olaparib 1 µM | – | colony survival | 0%
COC1OC(C)C(O)C(OC2OC(C)C(O)C(OC3OC(C)C(O)C(OC4OC(C)C(O)C(OC5OC(C)C(O)C(OC6OC(C)C(O)C(OC7OC(C)C(O)C(OC8OC(C)C(O)C(OC9OC(C)C(O)C(OC%10OC(C)C(O)C(OS(=O)(=O)O)C%10OS(=O)(=O)O)C9OS(=O)(=O)O)C8OS(=O)(=O)O)C7OS(=O)(=O)O)C6OS(=O)(=O)O)C5OS(=O)(=O)O)C4OS(=O)(=O)O)C3OS(=O)(=O)O)C2OS(=O)(=O)O)C1OS(=O)(=O)O (centres unmarked) | – | – | human plasma | 128 µg/mL | reference: control | thrombin time prolongation | 0.9 fold
CN1CCCNC(=O)c2cccc(c2)C(=O)NCCCN(C)CCCNc2cccc3c2C(=O)c2cccc(c2C3=O)NCCC1 | SAS | RNA-Seq, refers to: NAT14 mRNA | – | 1 µM, 6 h | reference: untreated cells | log2 fold change | -1.46
COC1OC(C)C(OS(=O)(=O)O)C(OC2OC(C)C(OS(=O)(=O)O)C(OC3OC(C)C(OS(=O)(=O)O)C(OC4OC(C)C(OS(=O)(=O)O)C(OC5OC(C)C(OS(=O)(=O)O)C(OC6OC(C)C(OS(=O)(=O)O)C(OC7OC(C)C(OS(=O)(=O)O)C(OC8OC(C)C(OS(=O)(=O)O)C(OC9OC(C)C(OS(=O)(=O)O)C(OC%10OC(C)C(OS(=O)(=O)O)C(OC%11OC(C)C(OS(=O)(=O)O)C(OS(=O)(=O)O)C%11O)C%10O)C9O)C8O)C7O)C6O)C5O)C4O)C3O)C2O)C1O (centres unmarked) | – | – | human plasma | 128 µg/mL | – | thrombin time | 10.1 ± 0.8 s
Cc1ccc(N(O)/N=N/c2ccc(S(=O)(=O)Nc3nccs3)cc2)cc1 | – | carrageenan-induced paw edema | Wistar rat | oral, 100 mg/kg, 0 h (baseline), added: carrageenan 1% subplantar | higher = more edema | paw edema volume | 3.4 ± 0.91 a.u.
C=CC(=O)N1[C@@H](c2ccc3c(c2)OCO3)c2[nH]c3ccccc3c2C[C@H]1C(=O)N1CCN(C)CC1 | human cyclin E1 N112C-3xFLAG:CDK2 | co-IP with TMT proteomics, refers to: PRDX1 | – | concentration not given, Q06830 | reference: wild type DMSO | relative co-enrichment | 105%
COc1cc(O)ccc1CCC(c1ccc(O)cc1)c1cc2c(c(C)c1O)OC(c1ccc(O)cc1)CC2 (mixture of isomers) | – | – | human blood | 30 µM, added: A23187 | – | PGE2 level | 30 ± 8 pg/mL
CNS(=O)(=O)Nc1nccc(Cc2c(C)c3ccc(Oc4ncccc4F)cc3oc2=O)c1F | OAW-42 | cell viability | – | 7 days | – | IC50 | > 1 µM
CC(C)c1ccc(N(C)c2ccc3c(c2)OCC[C@H]3CNc2cnccc2C(=O)O)cc1 | Daoy | cell viability, CellTiter-Glo | – | 7 days | – | IC50 | ≥ 10 µM
CCN(CC)CC(=O)Nc1cccc(-n2cc(-c3ccc4ccc(-c5cn(-c6cccc(NC(=O)CN(CC)CC)c6)nn5)cc4c3)nn2)c1 | RCC4 | PCR angiogenesis array, refers to: PTGS1 | – | 5 x IC50, 4 h, normoxia | reference: untreated | fold regulation | -1.71
Nc1ncc(-c2cc(-c3cnn(CC(F)(F)F)c3)ncc2F)nc1C(=O)NC1CNCC(F)C1 (centres unmarked) | JNK3 | KINOMEscan competition binding | – | 1 µM | reference: DMSO control | remaining binding | 100%
Cc1ncsc1-c1ccc(C(C)NC(=O)C2CC(O)CN2C(=O)C(NC(=O)CCCCCCCCCCN2CCCC(Nc3ncc(Cl)c(Nc4ccccc4S(=O)(=O)C(C)C)n3)C2)C(C)(C)C)cc1 (centres unmarked) | 22Rv1 | RNA-seq, refers to: SEMA4B mRNA | – | concentration not given | reference: DMSO | log2 fold change | -1
C=CC(=O)Nc1cccc(Cn2ncc3cnc(Nc4cnn(CCOC)c4)nc32)c1 | AAK1 human | binding, KINOMEscan | – | 100 nM | lower = stronger binding | percent of control | 7.6%
COC1OC(C)C(OS(=O)(=O)O)C(OC2OC(C)C(OS(=O)(=O)O)C(OS(=O)(=O)O)C2O)C1O (centres unmarked) | – | – | human plasma | 128 µg/mL | reference: control | thrombin time prolongation | 0.9 fold
c1ccc(-c2n[nH]cc2-c2ccnc3ccccc23)nc1 | VPS15 (Candida albicans) | kinase binding, MIB/MS competition | Candida albicans lysate | 1 µM | reference: DMSO | log2 fold change | 0.03
COC1OC(C)C(OS(=O)(=O)O)C(OC2OC(C)C(OS(=O)(=O)O)C(OC3OC(C)C(OS(=O)(=O)O)C(OC4OC(C)C(OS(=O)(=O)O)C(OC5OC(C)C(OS(=O)(=O)O)C(OC6OC(C)C(OS(=O)(=O)O)C(OC7OC(C)C(OS(=O)(=O)O)C(OC8OC(C)C(OS(=O)(=O)O)C(OC9OC(C)C(OS(=O)(=O)O)C(OS(=O)(=O)O)C9O)C8O)C7O)C6O)C5O)C4O)C3O)C2O)C1O (centres unmarked) | – | – | human plasma | 128 µg/mL | reference: control | thrombin time prolongation | 0.9 fold
Fc1ccc(Nc2nc(NC3CCCCC3)c3cc(C(F)(F)F)ccc3n2)cc1F | β2AR/β1AR ECL2 chimera | β-arrestin2 recruitment, antagonist, BRET | – | added: isoprenaline 1 µM | – | pIC50 | 6.4
C=C(NC(=O)c1csc(-c2nc3c(cc2O)-c2nc(cs2)C(=O)NC(C(C)O)C(=O)NC(=C(C)OC)c2nc(cs2)C(=O)NC2c4nc(cs4)C(=O)NC(COC(=O)c4c5c6c(cccc6n4O)COC(=O)C(OC4CC(C)(O)C(N(C)C)C(C)O4)C2OC5)c2nc-3cs2)n1)C(N)=O (centres unmarked) | Streptococcus pneumoniae | – | -25, immunocompromised mice, lung infection | tid dosing | – | ED50 | 4.6 mg/kg
COC1OC(C)C(OC2OC(C)C(OS(=O)(=O)O)C(OC3OC(C)C(OS(=O)(=O)O)C(OS(=O)(=O)O)C3OS(=O)(=O)O)C2OS(=O)(=O)O)C(OS(=O)(=O)O)C1OS(=O)(=O)O (centres unmarked) | – | – | human plasma | 128 µg/mL | reference: control | thrombin time prolongation | 1 fold
COc1cc2c(NC3CCN(C(C)C)CC3)cc(N3CCOCC3)nc2cc1OCCCN1CCCC1 | – | TMT quantitative proteomics, refers to: MFGE8 | 5xFAD mice, hippocampus | dose not given | – | normalised protein abundance | -0.06 and 0.217 and 0.149 and 0.0537 and 0.198 and 0.0338 and 0.0937 and -0.096
